# Experimental data pooled from the literature.
# Compare with care: the assays were run in different laboratories. Several values in a cell are separate wells, animals, samples, runs or records. ± gives the spread as reported.
# Chain of UniProt Q00987 (whole entry, looked up): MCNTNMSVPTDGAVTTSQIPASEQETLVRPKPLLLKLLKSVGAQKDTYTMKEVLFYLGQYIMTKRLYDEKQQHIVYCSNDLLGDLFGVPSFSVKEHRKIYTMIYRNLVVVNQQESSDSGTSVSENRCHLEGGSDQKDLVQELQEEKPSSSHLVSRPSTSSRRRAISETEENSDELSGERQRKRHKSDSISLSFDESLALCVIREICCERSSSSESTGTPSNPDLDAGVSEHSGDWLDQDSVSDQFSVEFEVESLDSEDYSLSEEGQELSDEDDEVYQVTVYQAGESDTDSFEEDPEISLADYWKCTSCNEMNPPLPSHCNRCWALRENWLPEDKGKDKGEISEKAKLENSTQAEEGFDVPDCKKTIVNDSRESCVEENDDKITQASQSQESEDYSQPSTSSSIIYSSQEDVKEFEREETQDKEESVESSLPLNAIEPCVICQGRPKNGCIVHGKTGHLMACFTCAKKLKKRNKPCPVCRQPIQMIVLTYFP
# Chain of UniProt A5GZW8 (whole entry, looked up): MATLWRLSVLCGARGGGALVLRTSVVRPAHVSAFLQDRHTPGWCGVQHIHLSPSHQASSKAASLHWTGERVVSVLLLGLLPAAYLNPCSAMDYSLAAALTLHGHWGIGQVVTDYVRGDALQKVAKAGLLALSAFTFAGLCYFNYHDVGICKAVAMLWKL
# Chain of UniProt Q007T0 (whole entry, looked up): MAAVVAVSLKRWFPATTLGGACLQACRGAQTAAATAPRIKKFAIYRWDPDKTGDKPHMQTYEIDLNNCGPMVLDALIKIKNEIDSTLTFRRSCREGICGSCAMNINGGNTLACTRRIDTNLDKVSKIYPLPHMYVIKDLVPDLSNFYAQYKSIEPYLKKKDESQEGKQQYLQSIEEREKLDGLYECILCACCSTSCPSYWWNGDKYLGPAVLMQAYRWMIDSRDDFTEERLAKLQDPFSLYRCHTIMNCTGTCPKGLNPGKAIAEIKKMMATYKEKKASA
# Chain of UniProt Q61206 (whole entry, looked up): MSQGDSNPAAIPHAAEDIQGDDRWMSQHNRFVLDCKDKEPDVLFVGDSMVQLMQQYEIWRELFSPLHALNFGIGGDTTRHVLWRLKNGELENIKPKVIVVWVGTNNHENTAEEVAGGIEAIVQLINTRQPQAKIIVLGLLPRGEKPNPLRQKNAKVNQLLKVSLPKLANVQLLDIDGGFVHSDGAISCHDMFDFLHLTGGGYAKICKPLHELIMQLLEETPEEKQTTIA
# Chain of UniProt Q9DB29 (whole entry, looked up): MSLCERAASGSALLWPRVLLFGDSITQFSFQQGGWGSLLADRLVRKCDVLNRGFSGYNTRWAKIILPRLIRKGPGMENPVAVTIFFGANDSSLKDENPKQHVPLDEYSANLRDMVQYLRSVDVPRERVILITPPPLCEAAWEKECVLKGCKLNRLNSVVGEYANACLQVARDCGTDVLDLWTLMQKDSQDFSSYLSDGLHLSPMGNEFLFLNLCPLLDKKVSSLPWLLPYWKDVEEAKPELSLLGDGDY
# Chain of UniProt D0VWV4 (whole entry, looked up): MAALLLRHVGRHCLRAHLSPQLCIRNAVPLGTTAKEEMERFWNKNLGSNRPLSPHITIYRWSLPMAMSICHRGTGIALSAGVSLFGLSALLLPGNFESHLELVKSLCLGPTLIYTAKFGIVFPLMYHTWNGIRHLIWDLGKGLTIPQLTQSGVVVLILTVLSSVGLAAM
# Chain of UniProt Q9Y2J8 (whole entry, looked up): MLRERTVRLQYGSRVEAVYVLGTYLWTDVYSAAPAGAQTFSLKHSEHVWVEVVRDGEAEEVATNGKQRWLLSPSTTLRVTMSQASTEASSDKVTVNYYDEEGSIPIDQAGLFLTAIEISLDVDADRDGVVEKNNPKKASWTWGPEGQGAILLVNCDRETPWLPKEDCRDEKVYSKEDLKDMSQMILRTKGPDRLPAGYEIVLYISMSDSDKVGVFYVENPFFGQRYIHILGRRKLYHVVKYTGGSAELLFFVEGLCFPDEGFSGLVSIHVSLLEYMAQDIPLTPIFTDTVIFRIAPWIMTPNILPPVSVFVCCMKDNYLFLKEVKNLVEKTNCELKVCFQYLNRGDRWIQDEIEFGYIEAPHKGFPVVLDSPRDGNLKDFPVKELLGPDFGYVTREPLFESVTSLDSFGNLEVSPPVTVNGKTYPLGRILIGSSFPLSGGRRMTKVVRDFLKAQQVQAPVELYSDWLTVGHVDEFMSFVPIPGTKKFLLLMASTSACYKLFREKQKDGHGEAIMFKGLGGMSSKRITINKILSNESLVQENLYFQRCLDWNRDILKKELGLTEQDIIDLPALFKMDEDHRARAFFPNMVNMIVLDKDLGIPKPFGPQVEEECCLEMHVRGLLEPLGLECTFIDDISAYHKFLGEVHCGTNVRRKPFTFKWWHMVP
# Chain of UniProt Q6DWJ6 (whole entry, looked up): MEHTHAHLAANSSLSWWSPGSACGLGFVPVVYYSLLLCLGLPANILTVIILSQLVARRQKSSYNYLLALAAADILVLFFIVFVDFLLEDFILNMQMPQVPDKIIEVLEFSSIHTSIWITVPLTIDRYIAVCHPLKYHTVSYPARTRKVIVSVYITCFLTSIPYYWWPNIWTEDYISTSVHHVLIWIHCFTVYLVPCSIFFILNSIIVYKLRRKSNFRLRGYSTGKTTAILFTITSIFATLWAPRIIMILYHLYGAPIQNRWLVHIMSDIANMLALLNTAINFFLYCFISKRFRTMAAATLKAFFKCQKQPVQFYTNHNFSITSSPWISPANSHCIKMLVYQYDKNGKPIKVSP
# Chain of UniProt Q16512 (whole entry, looked up): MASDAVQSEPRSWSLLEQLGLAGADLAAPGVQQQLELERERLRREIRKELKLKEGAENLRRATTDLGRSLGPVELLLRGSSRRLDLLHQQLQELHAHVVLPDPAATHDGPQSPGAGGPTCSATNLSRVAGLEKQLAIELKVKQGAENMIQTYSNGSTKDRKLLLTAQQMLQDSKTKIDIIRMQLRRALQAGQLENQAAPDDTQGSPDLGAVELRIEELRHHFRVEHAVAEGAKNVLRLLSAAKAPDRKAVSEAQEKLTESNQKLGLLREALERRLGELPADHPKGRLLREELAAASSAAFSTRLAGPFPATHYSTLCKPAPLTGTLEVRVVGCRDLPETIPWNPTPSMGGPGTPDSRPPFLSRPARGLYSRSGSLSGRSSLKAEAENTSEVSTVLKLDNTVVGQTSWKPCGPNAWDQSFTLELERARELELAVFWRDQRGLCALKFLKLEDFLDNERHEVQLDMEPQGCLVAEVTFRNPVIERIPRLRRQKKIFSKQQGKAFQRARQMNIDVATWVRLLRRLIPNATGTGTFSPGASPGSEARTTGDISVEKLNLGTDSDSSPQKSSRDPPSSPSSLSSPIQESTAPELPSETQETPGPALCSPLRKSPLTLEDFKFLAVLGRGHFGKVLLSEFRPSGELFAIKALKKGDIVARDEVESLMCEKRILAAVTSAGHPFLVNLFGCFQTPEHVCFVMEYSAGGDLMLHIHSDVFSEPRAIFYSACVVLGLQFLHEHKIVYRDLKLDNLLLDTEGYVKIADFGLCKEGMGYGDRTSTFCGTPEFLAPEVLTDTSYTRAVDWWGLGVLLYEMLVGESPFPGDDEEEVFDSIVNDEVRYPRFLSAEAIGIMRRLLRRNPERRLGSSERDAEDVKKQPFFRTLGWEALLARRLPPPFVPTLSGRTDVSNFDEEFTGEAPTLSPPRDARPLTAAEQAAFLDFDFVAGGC
# Chain of UniProt Q71U36 (whole entry, looked up): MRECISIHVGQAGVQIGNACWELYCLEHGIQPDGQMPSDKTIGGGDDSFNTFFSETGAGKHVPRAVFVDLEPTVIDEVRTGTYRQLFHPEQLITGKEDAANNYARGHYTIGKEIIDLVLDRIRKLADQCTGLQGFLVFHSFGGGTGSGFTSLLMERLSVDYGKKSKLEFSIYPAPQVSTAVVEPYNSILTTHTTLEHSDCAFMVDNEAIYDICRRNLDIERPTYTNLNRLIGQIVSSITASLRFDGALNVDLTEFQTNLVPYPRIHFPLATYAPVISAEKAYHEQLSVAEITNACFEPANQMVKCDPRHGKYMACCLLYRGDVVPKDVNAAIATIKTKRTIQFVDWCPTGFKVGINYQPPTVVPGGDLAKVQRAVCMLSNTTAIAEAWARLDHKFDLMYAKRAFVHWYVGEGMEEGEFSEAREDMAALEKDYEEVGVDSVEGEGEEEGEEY
# Chain of UniProt P50897 (whole entry, looked up): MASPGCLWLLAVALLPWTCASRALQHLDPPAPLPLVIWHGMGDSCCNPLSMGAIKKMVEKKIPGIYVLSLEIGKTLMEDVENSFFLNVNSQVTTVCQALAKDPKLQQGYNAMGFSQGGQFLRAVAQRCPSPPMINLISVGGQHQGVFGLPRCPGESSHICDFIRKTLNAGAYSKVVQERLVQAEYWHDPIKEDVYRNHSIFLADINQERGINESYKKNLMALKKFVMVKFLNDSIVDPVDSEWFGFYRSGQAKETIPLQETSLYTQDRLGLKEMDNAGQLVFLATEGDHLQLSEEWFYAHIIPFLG
# Chain of UniProt Q00534 (whole entry, looked up): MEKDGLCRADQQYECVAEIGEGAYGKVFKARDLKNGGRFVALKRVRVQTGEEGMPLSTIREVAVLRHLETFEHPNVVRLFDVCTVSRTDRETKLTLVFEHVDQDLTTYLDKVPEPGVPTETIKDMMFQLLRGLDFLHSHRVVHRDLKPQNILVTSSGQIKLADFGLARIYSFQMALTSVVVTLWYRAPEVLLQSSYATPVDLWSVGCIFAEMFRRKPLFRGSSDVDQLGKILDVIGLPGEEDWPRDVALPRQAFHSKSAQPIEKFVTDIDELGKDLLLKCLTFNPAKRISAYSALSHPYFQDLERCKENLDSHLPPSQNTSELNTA
# Chain of UniProt Q13568 (222-425, looked up): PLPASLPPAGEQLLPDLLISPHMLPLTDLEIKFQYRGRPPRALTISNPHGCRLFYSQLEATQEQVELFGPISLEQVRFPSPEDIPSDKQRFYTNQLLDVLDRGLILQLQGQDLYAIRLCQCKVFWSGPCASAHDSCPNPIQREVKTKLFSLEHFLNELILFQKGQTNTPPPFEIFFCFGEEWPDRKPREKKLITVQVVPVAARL
SMILES,target,test,test system,setting,scale,measurement,result
CN(C)[C@H]1C[C@@]23CC[C@@]4(O2)C(=CC[C@]2(C)[C@@H](c5ccc6ccncc6c5)CC[C@H]24)C=C3[C@@H](O)[C@@H]1O,"Serine/threonine-protein kinase N1 (PKN1, Homo sapiens, UniProt Q16512)","ATP probe labelling, inhibitor, KiNativ profiling",,0.1 µM,,inhibition,-3.5%
OC1Cc2ccccc2CC1N1CCC2(C=Cc3cc(Br)ccc32)CC1 (racemic),"Vesicular acetylcholine transporter (Rattus norvegicus, UniProt Q62666)",,,,reference: Ki sigma1 over Ki VAChT,selectivity ratio,0.12
O=C(N[C@@H]1c2ccccc2C[C@H]1N1CCCC1)c1ccc(-c2ccnc3[nH]ccc23)nc1,"Dual specificity mitogen-activated protein kinase kinase 4 (MAP2K4, Homo sapiens, UniProt P45985)","binding, competition with immobilised ligand",,3 µM,,remaining binding,56%
N[C@H](C(=O)N1CCCC1)C1CCN(c2nccc3c(-c4ncc(Cl)cc4Cl)cccc23)CC1,"Protein-arginine deiminase type-2 (PADI2, Homo sapiens, UniProt Q9Y2J8)",enzyme activity,,"0.0983 µM, together with: Ca2+ 0.25 mM",,kcat,0.353 s⁻¹ and 0.35 s⁻¹
CCCO[C@H]1[C@H](O)[C@@H](N)[C@@H](O[C@H]2[C@H](O[C@@H]3O[C@H](CO)[C@@H](O[C@H]4O[C@@H](CN)[C@@H](O)[C@H](O)[C@H]4N)[C@H]3O)[C@@H](O)[C@H](N)C[C@@H]2N)O[C@@H]1CO,"Histamine H2 receptor (HRH2, Homo sapiens, UniProt P25021)",radioligand binding,,"10 µM, 1% DMSO",,specific binding,-7%
Nc1ccn(C2OC(COP(=O)(O)OP(=O)(O)OP(=O)(O)O)C(O)C2(F)F)c(=O)n1 (stereo not shown),"pyrG (Escherichia coli, UniProt P0A7E5, C268A)",enzyme activity,,together with: UTP 0.20 mM,,Hill coefficient,1.9 ± 0.2
COCC1CCCCN1C(=O)n1cc(C(O)(c2ccccc2)c2ccccc2)nn1 (stereo not shown),"Isoamyl acetate-hydrolyzing esterase 1 homolog (Iah1, Mus musculus, UniProt Q9DB29)","probe labelling, inhibitor, competitive ABPP-SILAC, item: Iah1",mouse T cells,"concentration not given, 4 h, single peptide","reference: treated over DMSO cells, lower = stronger inhibition",SILAC activity ratio,1.77 and 1.44 and 1.32 and 1.27 and 1.24 and 2.35
CS(C)(=O)=Nc1ccc(-c2ccc(-c3nc4cc(O[C@@H]5CO[C@H]6[C@@H]5OC[C@H]6O)[nH]c4cc3F)cc2)cc1,"Cyclin-dependent kinase 6, with cyclin D3 (CDK6, Homo sapiens, UniProt Q00534)","enzyme activity, inhibitor",,10 µM,,inhibition,4%
CC[C@H](C)[C@@H]1NC(=O)[C@H](CC(C)C)NC(=O)CNC(=O)[C@H](CCCNC(=N)N)NC(=O)[C@H](Cc2c[nH]c3ccccc23)NC(=O)[C@H](CCSC)NC(=O)[C@H](CO)NC(=O)[C@H](CCC(=O)O)NC(=O)[C@H](Cc2ccccc2)NC(=O)[C@H](CC(=O)O)NC(=O)[C@H]([C@@H](C)O)NC(=O)CNC(=O)[C@H](CCC(=O)O)NC(=O)[C@H]([C@@H](C)O)NC(=O)CNC(=O)[C@H](CC(=O)O)NC1=O,"E3 ubiquitin-protein ligase Mdm2 (MDM2, Homo sapiens, UniProt Q00987)","MDM2-ligand binding, inhibitor, AlphaLISA competition",,"6.25 µM, together with: GST-tagged MDM2 ligand",lower = stronger inhibition,AlphaLISA signal,1880 a.u. and 1580 a.u. and 1680 a.u.
CCOC(=O)C(CC)(CC)NC(=O)c1ccc(C2CC2)c(Cc2ccc(F)cc2)n1,"Cannabinoid receptor 2 (Cnr2, Mus musculus, UniProt P47936)","cAMP, agonist",,,,Emax,99%
O=C1NC(=O)c2c1c1cc(F)c[n+]3c1c1c2c2cc(O)ccc2[n]1[Ru-4]312([N]=C=S)[S+]3CC[S+]1CC[S+]2CC3 (stereo not shown),"Serine/threonine-protein kinase MARK2 (MARK2, Homo sapiens, UniProt Q7KZI7)",enzyme activity,,"100 nM, human enzyme, together with: 10 µM ATP",reference: untreated,remaining activity,7%
CC[C@H](C)[C@H](NC(C)=O)C(=O)N[C@@H](CCCNC(=N)N)C(=O)N[C@@H](CC(C)C)C(=O)N[C@@H](CCC(N)=O)C(=O)N[C@H](C(=O)N[C@@H](CO)C(=O)N[C@@H](CC(N)=O)C(=O)N1CCC[C@H]1C(=O)N[C@@H](Cc1ccc(O)cc1)C(=O)N[C@@H](CC(C)C)C(=O)N[C@@H](CCCCN)C(=O)N[C@@H](Cc1ccccc1)C(=O)N[C@H](C(=O)N1CCC[C@H]1C(=O)N[C@@H](CC(C)C)C(=O)N[C@@H](CCCCN)C(=O)N[C@@H](CCCNC(=N)N)C(=O)N[C@@H](C)C(=O)N[C@H](C(=O)N[C@@H](Cc1c[nH]c2ccccc12)C(=O)N[C@@H](CC(C)C)C(=O)N[C@H](C(=O)N[C@@H](CCCCN)C(N)=O)[C@@H](C)CC)[C@@H](C)CC)[C@@H](C)CC)[C@@H](C)CC,"Interferon regulatory factor 5, residues 222-425 (IRF5, Homo sapiens, UniProt Q13568)",thermal shift,,,,melting temperature,40.6 ± 0.1 °C
CC[C@H](C)[C@H](NC(=O)[C@H](CCCNC(=N)N)NC(=O)[C@H](CCCNC(=N)N)NC(=O)[C@H](CC(C)C)NC(=O)[C@H](Cc1ccccc1)NC(=O)CNC(=O)CNC(=O)[C@@H](N)Cc1ccc(O)cc1)C(=O)N[C@@H](CCCNC(=N)N)C(=O)N1CCC[C@H]1C(=O)N[C@@H](CCCCN)C(=O)N[C@@H](CC(C)C)C(=O)N[C@@H](CCCCN)C(=O)O,"Probable G-protein coupled receptor 139 (GPR139, Homo sapiens, UniProt Q6DWJ6)","G protein activation, agonist, BRET, item: Gα13",HEK-293T/17,40 µM,reference: GαoA response,Emax,8.69% and 6.87%
C[C@H](NCc1ccc(-c2ccc(C(F)(F)F)cc2)cc1)C(N)=O,"Tyrosine-protein kinase ABL1, phosphorylated (ABL1, Homo sapiens, UniProt P00519)","cell-free assay, competition with immobilised ligand",,1 µM,,inhibition,8%
CC#CC(=O)NC[C@H](NC(=O)[C@H](CC1CCCCC1)NC(=O)[C@H](CCC(N)=O)NC(C)=O)C(=O)N[C@@H](CC(C)C)C(=O)N[C@@H](Cc1ccccc1)C(=O)O,"Beta sliding clamp (Escherichia coli, UniProt P0A988)","binding, isothermal titration calorimetry",,37 °C,,ΔG,-10.1 kcal/mol
CON(C(=O)c1cn(C)nc1C(F)F)C(C)Cc1c(Cl)cc(Cl)cc1Cl (stereo not shown),"SDHD/SDHC/SDHB (Sus scrofa, UniProt A5GZW8+D0VWV4+Q007T0)","enzyme activity, inhibitor, DCIP reduction",pig,"0.6 µM, together with: DCIP 10 µM",,reaction velocity,0.00192 µM/s and 0.00173 µM/s and 0.00175 µM/s
CC(C)[C@H]1NC(=O)C[C@H]2/C=C/CCSSC[C@@H](NC1=O)C(=O)N[C@H](Cc1cccc3ccccc13)C(=O)NCC(=O)O2,"Serine/threonine-protein kinase D3 (PRKD3, Homo sapiens, UniProt O94806)","enzyme activity, inhibitor",,10 µM,,inhibition,8.9%
CN(C)CCCSC(=S)N1CCN(C(=O)/C=C/c2coc3ccccc3c2=O)CC1,"Nucleoprotein (N, Tomato spotted wilt virus, UniProt P25999, R94A/Y184A)","binding, microscale thermophoresis",,0.9766 µM,dose series,MST response,0.357 a.u.
CC(C)CC(O)(CC(C)C)c1cn(C(=O)N2CCCC2)nn1,"Platelet-activating factor acetylhydrolase IB subunit alpha2 (Mus musculus, UniProt Q61206)","probe labelling, inhibitor, competitive ABPP-SILAC, item: Pafah1b2",mouse T cells,"concentration not given, 4 h, single peptide","reference: treated over DMSO cells, lower = stronger inhibition",SILAC activity ratio,1.28 and 1.09 and 1.22 and 1.25 and 1.18
CCOC(=O)[C@@H]1Cc2c(cc([N+](=O)[O-])cc2[N+](=O)[O-])[C@H](O)[C@]12C(=O)Nc1ccc(Br)cc12,"Serine/threonine-protein kinase PAK 2 (PAK2, Homo sapiens, UniProt Q13177)","binding, competition with immobilised ligand",,0.1 µM,,remaining binding,85%
COc1ccc(NC(=S)NCCN2CCC(C)CC2)cc1Cl,"uncharacterized protein (Anopheles gambiae, UniProt Q7QFG0)","enzyme activity, inhibitor, Ellman",,"up to 1000 µM, pH 7.4, 30 °C, together with: 1 mM acetylthiocholine",,IC50,inactive
Cc1ccc(CC(=O)N2CCN(CC(OCc3ccc4ccccc4c3)c3ccc(Cl)cc3Cl)CC2)cc1 (stereo not shown),"Serine/threonine-protein kinase ULK1 (ULK1, Homo sapiens, UniProt O75385)","enzyme activity, inhibitor, ADP detection",,0.1 µM,,activity vs control,141%
COc1ccc(F)cc1S(=O)(=O)Nc1cnc2c(c1)C(=O)NCCO2,L-type calcium channel Dihydropyridine site,radioligand binding,,10 µM,,inhibition,-12%
C#CCCCCOc1ccc2c(c1)CCCN2C(=O)CCl,"Palmitoyl-protein thioesterase 1 (Homo sapiens, UniProt P50897)","mass spectrometry profiling, item: PPT1",H460 cell lysate,"100 µM over 10 µM, UniProt P50897",reference: high over low concentration,reactivity ratio,1.33
COc1ccccc1-c1n[nH]c2nc(N[C@H]3CC[C@H](NS(=O)(=O)CC(C)C)CC3)ncc12,"Tubulin alpha-1A chain (Homo sapiens, UniProt Q71U36)","competitor, bead pull-down competition, item: TUBA1A",Leishmania donovani extract,10 µM,reference: vehicle,relative abundance,3.02
